Assay results of several laboratories.
Each numbered part is a random draw from the data of one study; scales do not carry over between parts. Changes are numbered by the printed parent chain.

Sample 1
Target: CREB3, bZIP domain (human)
Method: DHFR protein complementation
Matrix: yeast
Setting: single substitutions, most at no-binding floor
Relative to: wild-type JUN-FOS pair
Direction: higher = stronger binding
Quantity: binding fitness
Parent: JUN, bZIP domain (human); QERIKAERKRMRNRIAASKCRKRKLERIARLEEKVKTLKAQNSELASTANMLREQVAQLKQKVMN; partner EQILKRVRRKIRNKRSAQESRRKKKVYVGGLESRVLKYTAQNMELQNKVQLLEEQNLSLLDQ
I28H: -1.52 natural log
L52C: -1.47 natural log
Q41N: -1.31 natural log
K39A: -1.44 natural log
R30W: -1.45 natural log
S43A: -1.33 natural log
A49S: -1.42 natural log
A46F: -1.37 natural log
K36D: -1.49 natural log
K36P: -1.52 natural log
N42H: -1.42 natural log
L31E: -1.31 natural log
K39D: -1.52 natural log
M51V: -1.38 natural log
S47Q: -1.21 natural log
I28C: -1.51 natural log
L52E: -1.5 natural log
T37W: -1.48 natural log

Sample 2
Target: RING finger protein unkempt homolog, zinc fingers 1-6, GST-SBP tag (UNK, Homo sapiens, UniProt Q9C0B0, residues 30-357)
Method: RNA Bind-n-Seq
Molecule type: RNA
Matrix: in vitro
Tested at: not given
Setting: RNA with constant flanks, human and mouse sites, ends assumed
Relative to: input RNA pool
Direction: higher = stronger binding
Quantity: bound/input enrichment
Shared flanks, not repeated: GGGAGUUCUACAGUCCGACGAUC … CAACAGAGGAUUGAGCAUCA
Construct (chain): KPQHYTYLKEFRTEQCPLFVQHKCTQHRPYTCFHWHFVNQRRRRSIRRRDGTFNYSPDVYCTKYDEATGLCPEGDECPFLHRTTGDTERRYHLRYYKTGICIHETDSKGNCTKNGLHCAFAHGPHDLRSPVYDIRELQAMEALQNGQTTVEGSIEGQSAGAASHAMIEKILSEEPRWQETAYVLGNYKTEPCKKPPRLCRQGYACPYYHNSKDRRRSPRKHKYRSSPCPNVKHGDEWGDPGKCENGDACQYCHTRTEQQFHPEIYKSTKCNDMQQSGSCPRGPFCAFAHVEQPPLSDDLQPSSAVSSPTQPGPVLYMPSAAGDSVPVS
CGCAACGUGAUCGUGGAGCGCAGGAACCUGAUCACCGUGUGCAGGUUCUCUGUGAAAACCCUGCUAGAGAAGUACACAGCAGAACCCAUUGAUGACUCUUCCGAGGAGUUUGUUAAUUUC: 0.0758 ratio
GCCUACAUCCUCUAUAGAAAGAAGAUUUUUUGGAAAAUCUGAUGGCUCCCACUGAGAUGUGCUGCUGGAAGACUCUAGUAGGCCUGCAGGGAGGACUGAAGCAGCCUUUGUUAAAGGGAA: 0.334 ratio
AAGCUGUAGGCUUUCUUCAGCCUUGCUCUUCCCAGCUCUGGAGAGUCCCUCCCUGACCUGGUGGUUAUAAUACAGCAGGCGGCCUUGGUUAAUGUUUACCUUUUCAUUGUGUUUUUGAAA: 0.0841 ratio
GUAGAGCCCAGCCCCUCCCCAAUCAAGCCUGGAGAUAUUAAAAGAGGAAUUCCCAAUUAUGAAUUUAAACUUGGAUGAAGCUGGAGGCAGAUUCGUCGCUUUCUCUGGAGAAGGACAGUC: 3.38 ratio
GUCCCAGGCUCUCUGUUGACAGAGUUGGCUCUCUAGAGUCUCGUACUUUAUUCAUAAAUCUAGUAGGAGCGAGGACACAUUAGUAGAUGCAGAAGUGAAAUGUUUUCACUGUCACUGUGA: 2.56 ratio
GAGUAGCCUAAGUCUGGCUGUUCCUCCACCAAGAUUUCAUGACUCCAGCAGUCCGUUGCUAACCAGUGGGCCCUCAGUUGCUGAGCUCCCGUGGGCUGUAAAGUCUGAAGAUAAAGCCAA: 0.212 ratio
GGGAGCCAAGUUCUGUGAAGUACUCUACUUCACCAGCAAGUUCAGACUACUCUUGGAAAUCACUUGAAAAACAAAAAAAAUAUACAUACUCUGGAUCGCGGGAUGUCAGUAAACAUGAGC: 0.394 ratio
AGAGUUACCCCAAAGGAAUGGAGGAAUCAGUAAUCAUCCCAGCUGGUGUAAUAAUGAAUUGUUUAAAAAACAGCUCAUAAUUGAUGCCAAAUUAAAGCACUGUGUACCCAUUAAGAUAUG: 0.142 ratio
GCUUUGCAAGGGUAGCUGGGGUGAAUUUGCACCAAGGCAGCAGCAUAGUCGCCGCAGUUCCAUCUUCGUCUCCGCGAUGUUGCCCUUAGCCAAAAACGCACUAAGCCGUCUCCAAGUUCG: 0.0868 ratio
UACGCCGGCAGCCCGGUGCACCACGCGGCUGAGCGACUGGGAGGCGCCCCGACCGGCCAGGGCGUGAGCCCCAGCCCCAGCGCCAUCCUGGAGCGGCGCGACGUGAAGCCAGAUGAGGAC: 0.165 ratio
UGGUCUCCCCAGGCAAGAAGGUAUCCUCUUCCCAAGGUGUACCCACUGAAUGUUGUUACUACAUAUUGAGAGUCAUUUUAUGCAUAUGCAUUCUACCUUUCCUGCUUUAUGAGUAUUUUU: 0.31 ratio

Sample 3
Target: Histone acetyltransferase KAT6A, both winged helices, GST fusion (KAT6A, Homo sapiens, UniProt Q92794, residues 1-181)
Method: protein binding microarray
Molecule type: double-stranded DNA, one strand shown
Matrix: in vitro
Tested at: not given
Setting: 8-mer, flanks averaged, mean of 2 arrays, mostly near background
Relative to: not given
Direction: higher = stronger binding
Quantity: E-score
Target sequence (chain): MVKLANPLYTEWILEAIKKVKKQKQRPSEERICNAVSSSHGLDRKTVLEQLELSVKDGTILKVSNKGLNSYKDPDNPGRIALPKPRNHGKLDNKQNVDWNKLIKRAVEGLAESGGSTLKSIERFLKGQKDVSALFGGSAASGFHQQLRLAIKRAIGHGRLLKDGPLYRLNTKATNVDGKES
AGCAAGTC: -0.141
GGACGTAA: 0.0881
TTCTCCAA: -0.128
AGTTTTCA: -0.0364
ACTTTACG: 0.0126
TGGTTCAA: -0.0666
CAAGTCGC: -0.00918
CCCGCGCC: 0.287
ATGTACTA: -0.175
CTACCTGA: -0.199
AAAGCACT: -0.178
AGTAGACC: -0.0365
CAAGAGAG: -0.246
TATCAACA: -0.125
ATCGGAGG: -0.00843
CATAATCC: -0.0888
GTCTGAAC: 0.0258
AGTGGCGG: 0.103

Sample 4
Target: CCNB3, cyclin fold, Cln2 fusion (human)
Method: yeast growth competition, sequencing
Matrix: yeast
Setting: weak parent motif
Relative to: not given
Direction: higher = stronger binding
Quantity: normalised enrichment score
Parent: CDC25A docking peptide (human); PPHRRRLLFACSP; partner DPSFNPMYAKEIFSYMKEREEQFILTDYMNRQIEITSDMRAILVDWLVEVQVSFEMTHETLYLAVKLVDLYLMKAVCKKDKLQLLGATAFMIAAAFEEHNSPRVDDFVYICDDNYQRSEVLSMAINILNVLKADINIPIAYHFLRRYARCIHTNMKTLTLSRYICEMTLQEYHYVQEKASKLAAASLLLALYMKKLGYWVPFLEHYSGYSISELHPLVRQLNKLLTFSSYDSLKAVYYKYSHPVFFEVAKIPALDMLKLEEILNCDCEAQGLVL
L7C: 0.246
P13K: 0.137
P13F: 0.0368
P1T: 0.0992
L8K: 0.278
S12N: 0.549
F9P: 0.127
L7G: 0.198
R4Y: -0.0958
R5H: 0.483
L7M: 0.113
C11R: -0.229
H3C: 1.13
C11D: -0.136
C11S: 0.128
R5N: -0.242
P1Q: 0.011
P13H: 0.329
S12R: 0.196
F9H: 0.0458
P13Y: 0.616

Sample 5
Target: ABI1, truncated, D143A, DHFR fusion (Arabidopsis thaliana)
Method: DHFR PCA, deep sequencing
Matrix: yeast
Setting: methotrexate growth selection, single substitutions
With: (+)-ABA 0.11 µM
Relative to: wild-type fitted maximum
Direction: higher = stronger binding
Quantity: relative binding score
Parent: PYL1, truncated, DHFR fusion (Arabidopsis thaliana); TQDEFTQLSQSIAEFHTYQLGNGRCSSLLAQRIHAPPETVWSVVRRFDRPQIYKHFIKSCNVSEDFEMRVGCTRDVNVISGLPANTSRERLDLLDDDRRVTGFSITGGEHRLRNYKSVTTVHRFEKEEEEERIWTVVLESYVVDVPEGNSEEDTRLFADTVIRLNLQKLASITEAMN; partner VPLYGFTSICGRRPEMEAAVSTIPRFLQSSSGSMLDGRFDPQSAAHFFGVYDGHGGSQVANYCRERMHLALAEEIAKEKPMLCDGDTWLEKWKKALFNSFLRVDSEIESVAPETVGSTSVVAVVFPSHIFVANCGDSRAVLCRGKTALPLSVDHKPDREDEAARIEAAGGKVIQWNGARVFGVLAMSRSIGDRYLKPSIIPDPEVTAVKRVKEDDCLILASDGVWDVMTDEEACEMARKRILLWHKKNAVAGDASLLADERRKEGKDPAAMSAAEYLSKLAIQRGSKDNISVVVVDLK
F47A: -0.393%
R98N: 19.3%
K126L: 29%
L29P: 5.02%
S11C: 34.6%
I133G: 48.2%
V118R: 49.1%
G102V: 0.0113%
R132P: 48.6%
C25L: 6.24%
V145Y: -11.1%
K126F: 17.4%
R45F: -0.875%
V43T: -1.69%
V143F: -7.12%
R111Q: 2.47%
Y53E: 0.827%
T160W: 0.0468%
L93C: 11%
L164I: 6.23%
T154F: -15.6%
L169P: 5.45%
T120F: -9.44%
T39I: 53.3%
R90L: 0.283%

Sample 6
Target: RNA binding protein fox-1 homolog 2, RRM domain, GST-SBP tag (RBFOX2, Homo sapiens, UniProt O43251-10, residues 100-194)
Method: RNA Bind-n-Seq
Molecule type: RNA
Matrix: in vitro
Tested at: 365 nM
Setting: natural RNA segment, single round, ends assumed
Relative to: no-protein control
Direction: higher = stronger binding
Quantity: RBNS enrichment (R)
Shared flanks, not repeated: GGGAGUUCUACAGUCCGACGAUC … UGGAAUUCUCGGGUGCCAA
Target sequence (chain): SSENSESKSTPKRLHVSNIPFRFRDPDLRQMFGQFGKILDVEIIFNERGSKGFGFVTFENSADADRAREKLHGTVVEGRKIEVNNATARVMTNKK
UUGAAGAGUUUUAGAAGAAAUUCUCAUGGAAAUGCCCUAUCCCUGGACCUUCAGCCUCUUCUCUUCCAGUUUACCUCCAGGUGGGGCUGAUAUGCCACAUAGGAUGCUCC: 0.446
CUUGUGGCCUUUAGGACAGUGCUUAGCACUGUGCAGCUGGGACUGUCCCUGGCAAGUGCCUGGUAAAGGACACCGAGGCUGCUGAGCUCUUCCAGCAUGGAGGGUACCAU: 8.41
AAAAUGGGAAACCUUACAGGACAUAAAACAUUAGGCUCGGGUUAGGCACUAAGAUAAAGUCUAGUCCAGUUCUCAUUUUAAAAGUCAACUAGCUCUAAAGCUAGUUAGUG: 0.335
GGCACUUGCAUGGGAGCCACAGAGGAGCGUCCCUGGGGAUUGUUGGGACCAUGCUGCCCCCACUCCCGCUUUUGUUGGGGCUCUAAGUUCUGGAAGGUGUGUGCACAGAG: 10.5
ACAAAGAAUGUAUACUCAUCUUUUUUGGCCCAUUACAAUACUGCUUUCUCAGGUUCUUAACAGCCUGUGCAAACUCCCUGACUAGAUGGUCUGUCACUCCUAUCAUUACC: 0.309
CUUUCCCUUUCCCUUCAAAUCUUUUAAUGGUAAGAAAGCAAGUGAAGCUUGGUGCAAGCUAAAAUUUUUAAAUGGUGUGGAAAUGCAAAUAAUACCAAGUAAAAUAAUAC: 2.36
AACAAAGCCCACAGGAUACGCCCGAGACCCUCAAUUCAAGGAGAGCUCCAAGGAUGUGUUGGACUCUGUGCUCCAGUGGGGCACUGGCUGCACGUGGGUCCUUGGAGAUG: 0.337
CAAAACCUGGAGACGCAGCUACUGGAAUGGUGUUUUGUGAGACUUCCAAGGCUGGAAAGACACAGUCAUGGAUGUACUGUCUGAGCAUAGAGAACCCGGGCUUGAGUGAG: 6.5
GGGGUUCUGCUGGCUCAUACCCUCAGAAGAGCACCUGGGAGUAACCUAGUCAUGGCAAAGAAGAUGUGACACGAGGGACCAGUCCCAGAGCAGCUACAGAAAGGGUGUGA: 0.296
UUAAGUGCAAAACAUGUAAAUUUGGUUCCCAGAGUGGGCCAAUCUCUCUGUUCUUGUUAUCUUAGCCAACUAUACUGAUACCUACAGCUACAGAAAGCAGGACUAGGAAC: 0.27
AUUUCCUAACCAUGAGAAGCAGACUCUAAUAUUCAUAUUUAAACAAAGCAAUUUUUUUUAUUACUAAACAAGGUUUUUAUGAAUAAUAGCAUUGAUAUAUAUAUAUUAUA: 0.541
UGCCAAUCUCUUCUGUGAGGCAUCAUAGACACUGAGCAACCAGGACCACCCCCACGUUCAGAAAUCAGCUGGCCAAGUGACUCCAUUUGACUUGCAAACCAGCCUUUUCU: 0.188
